Results collected from several papers.
Protocols differ between the studies behind these lines.
Target: Receptor tyrosine-protein kinase erbB-3 (ERBB3, Homo sapiens, UniProt P21860)

The remaining binding of `CNC(=O)C1CCN(c2cc(C)c(F)cc2NC(=O)c2ccc(-c3cc(O)ccc3C)c(C)c2)CC1` is reported as 63% (binding, competition with immobilised ligand; 1 µM).
The remaining binding of `Cc1ccc(-c2c(/C=C(\C#N)C(=O)NC(C)C)n(CCCO)c3ncnc(N)c23)cc1` is reported as 88% (cell-free assay, competition with immobilised ligand; 1 µM).
`Nc1ncc2c(n1)-c1c([nH]c3ccc(C4=CCOCC4)cc13)CCC2` has a remaining binding of 89% (binding, competition with immobilised ligand; 1 µM).
For `COc1c(Cl)cccc1Nc1c(-c2ccncc2C#C[C@@]2(C)CCCN2C(=O)/C=C/CN(C)C)[nH]c2c1C(=O)NCC2`, the remaining binding was 65% (binding, competition with immobilised ligand; 3 µM).
The remaining binding of `CC(C)=CC1OC(C)(C)C2C=C3C(=O)C(Cl)=CC(O)C3C3C(O)C4OC4C(=O)C132` (centres unmarked) is reported as 94% (cell-free assay, competition with immobilised ligand; 10 µM).
`C=CC(=O)N1CCc2ccc(-n3c(=O)ccc4cnc5ccc(-c6cnn(C)c6)cc5c43)cc21` gave a remaining binding of 83% (KINOMEscan; 1 µM; reference: DMSO control).
The remaining binding of `Cc1cnc2nc1Nc1cccc(c1)COC/C=C/COCc1cc(ccc1OCCN1CCOCC1)N2` is reported as 99% (binding; 0.1 µM).
`CCN1CCN(Cc2ccc(C(=O)Nc3ccc(C)c(NCc4cnc5[nH]ccc5c4OC)c3)cc2C(F)(F)F)CC1` gave a remaining binding of 63% (binding, competition with immobilised ligand; 1 µM).
`COc1cc(Nc2nccc(-c3cnn4nc(OC)ccc34)n2)cc(C(F)(F)F)c1` gave a remaining binding of 95% (binding, competition with immobilised ligand; 1 µM).
The remaining binding of `C=CC(=O)N1CCCC(n2c(=O)c3ncccc3n(Cc3ccc(Oc4ccccc4)cc3)c2=O)C1` (centres unmarked) is reported as 69% (cell-free assay, competition with immobilised ligand; 1 µM).
`CNC1C[S+]2CC[S+]3CC[S+](C1)[Ru-4]321([N]=C=S)[n]2c3ccc(OC)cc3c3c4c(c5cc(F)c[n+]1c5c32)C(=O)NC4=O` (centres unmarked) gave a remaining binding of 100% (KinomeScan; 0.1 µM; reference: untreated).

Some of these lines once more:
The remaining binding of `Cc1ccc(-c2c(/C=C(\C#N)C(=O)NC(C)C)n(CCCO)c3ncnc(N)c23)cc1` is reported as 88% (cell-free assay, competition with immobilised ligand; 1 µM).
